Experimental data from different studies.
Parts stem from different laboratories: compare values within a part only. Positions count from the first letter of the parent shown.

Study 1 — method: protein-binding microarray; form: double-stranded DNA, one strand shown; matrix: in vitro; tested at: 2540 nM top; setting: 60-bp whole probe; with: salmon DNA 0.4 mg/ml; reference: random background probes; direction: higher = stronger binding
Target: Interferon regulatory factor 3, full length, phosphomimetic (IRF3, Homo sapiens, UniProt Q14653, residues 1-427, S386D/S396D/S398D/S402D/T404D/S405D)
Constant ends, left off below: GCCTAGCAC … GTGCTAGGTCTTGATTCGCTTGACGCTGCTG
Target sequence (chain): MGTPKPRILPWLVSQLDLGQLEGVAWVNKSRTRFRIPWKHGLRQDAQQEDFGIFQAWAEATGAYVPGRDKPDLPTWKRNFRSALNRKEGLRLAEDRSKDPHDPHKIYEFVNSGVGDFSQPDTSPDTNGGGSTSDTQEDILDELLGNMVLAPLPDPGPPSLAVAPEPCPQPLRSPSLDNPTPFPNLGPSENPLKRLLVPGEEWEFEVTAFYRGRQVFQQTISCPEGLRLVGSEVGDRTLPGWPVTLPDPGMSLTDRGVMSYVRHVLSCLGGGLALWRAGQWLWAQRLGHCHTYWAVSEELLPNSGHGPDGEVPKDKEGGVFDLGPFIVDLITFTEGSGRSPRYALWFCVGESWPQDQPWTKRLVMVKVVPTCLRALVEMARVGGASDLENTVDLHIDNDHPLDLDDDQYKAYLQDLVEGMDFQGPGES
Oligonucleotide	fitted relative affinity [z-score]
GACGATATCAGACTGGGGAC	0.174
TCCATTTTCTGAATGCCTTG	2.7
TTAGTTTTCCTTATCCTTTA	5.81
TCATGTATATCTTCAGCACT	0.00684
GATTATAAAATGTGTGTTTG	0.00491
GACGATATCAGTCTTGAGAC	1.12
TCACTTTGCCTTTTGCTACT	1.81
TCAACTCTCTGCTTGTAACT	0.17

Study 2 — method: RNA Bind-n-Seq; form: RNA; matrix: in vitro; tested at: 200 nM; setting: whole 134-nt RNA, ends assumed; with: 150 mM LiCl; reference: input library; direction: higher = stronger binding; all molecules: 7-deaza-guanosine replaces G
Target: Fragile X messenger ribonucleoprotein 1, C-terminal low-complexity region (Fmr1, Mus musculus, UniProt P35922)
Oligonucleotide	log2 enrichment
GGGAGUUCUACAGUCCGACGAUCUCCUGUGCUACACAUCGUAUGUACCGAAUCGGGAAAAAAAGGGUUUUUGGGUUUUUGGGAAAGUAUUAUGUUACGCCGUUCGGAUCUGCAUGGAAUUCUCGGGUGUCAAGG	-2.31
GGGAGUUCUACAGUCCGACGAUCACCAUGCAGGUGGGCAUCUUUGGGAAGUGGGGCAAGGGGGGGAUAGGGAGGGGGGUAACACUUUGGGAACAGGUGGUCCCAGGUCGUUUCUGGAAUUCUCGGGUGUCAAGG	1.01
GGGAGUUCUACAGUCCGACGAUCUCCUGUGCUACACAUCGUAUGUACCGAAUCGGAAAAAAGGAAAAAAGGGGAAAAAAGGGGAAAGUAUUAUGUUACGCCGUUCGGAUCUGCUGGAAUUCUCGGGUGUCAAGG	-0.959
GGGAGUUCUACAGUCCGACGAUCAAGUCCUGUGCUACACAUCGUAUGUACCGAAUCGGGUUUGGGUUUUUUUGGGAGGGAAAGUAUUAUGUUACGCCGUUCGGAUCUGCACUUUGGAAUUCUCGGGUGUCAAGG	-0.177
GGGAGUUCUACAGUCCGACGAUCAAGUCCUGUGCUACACAUCGUAUGUACCGAAUCAAAUUUAAAUUUAAAUUUUUAAAAAAGUAUUAUGUUACGCCGUUCGGAUCUGCACUUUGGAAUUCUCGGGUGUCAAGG	-3.29
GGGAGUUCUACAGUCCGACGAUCGUCCUGUGCUACACAUCGUAUGUACCGAAUCAAACCCCCCCAAACCCAAAUUUUUAAAAAAGUAUUAUGUUACGCCGUUCGGAUCUGCACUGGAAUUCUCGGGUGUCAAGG	1.29
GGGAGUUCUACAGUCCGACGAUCUCAAGUCCUGUGCUACACAUCGUAUGUACCGAAUCGGGUUGGGUUGGGUUGGGGAAAGUAUUAUGUUACGCCGUUCGGAUCUGCACUUCCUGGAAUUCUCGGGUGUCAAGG	-0.407

Study 3 — target: CCNE2, cyclin fold, Cln2 fusion (human); method: yeast growth competition, sequencing; matrix: yeast; setting: strong parent motif; reference: not given; direction: higher = stronger binding
Starting sequence: BRCA2 docking peptide (human); PSIKRNLLNEFDR; partner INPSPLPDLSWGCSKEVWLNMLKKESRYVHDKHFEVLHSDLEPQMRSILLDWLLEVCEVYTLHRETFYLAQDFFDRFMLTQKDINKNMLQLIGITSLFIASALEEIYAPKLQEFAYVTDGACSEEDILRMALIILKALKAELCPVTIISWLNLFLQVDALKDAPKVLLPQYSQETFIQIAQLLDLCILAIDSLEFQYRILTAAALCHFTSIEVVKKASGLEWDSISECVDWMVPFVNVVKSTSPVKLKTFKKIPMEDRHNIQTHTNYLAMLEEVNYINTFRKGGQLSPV
Substitution	normalised enrichment score
PSIKRNRLNEFDR [L7R]	0.562
PSIKRNELNEFDR [L7E]	-0.28
PSIKRNLLNLFDR [E10L]	1.11
PSIKRNLHNEFDR [L8H]	0.471
CSIKRNLLNEFDR [P1C]	1.67
PLIKRNLLNEFDR [S2L]	1.75
PSIFRNLLNEFDR [K4F]	0.421
PSIKRNLLNEFFR [D12F]	1.44
PAIKRNLLNEFDR [S2A]	1.21

Mixed results
Molecule	target	test	system	setting	scale	measurement	value
PhoQ, residues 284 288 289 292 302 303 STVVAA	PhoP, residues 12 14 15 18 19 SQCLL (Escherichia coli, UniProt P23836)	Sort-seq, measured: YFP reporter	E. coli	PhoQ-PhoP variant library, with: 10 µM Mg2+	reference: high Mg2+ state, higher = stronger signaling	fold induction	8.86

For quick reference, copied from above (study 3):
Substitution	normalised enrichment score
PLIKRNLLNEFDR [S2L]	1.75
PSIFRNLLNEFDR [K4F]	0.421
PSIKRNLHNEFDR [L8H]	0.471
PSIKRNELNEFDR [L7E]	-0.28
